Measured values collected from several papers.
Each numbered part is a random draw from the data of one study; scales do not carry over between parts. Substitutions count along the parent as printed.

Block 1
Target: RNA binding protein fox-1 homolog 2, RRM domain, GST-SBP tag (RBFOX2, Homo sapiens, UniProt O43251-10, residues 100-194)
Method: RNA Bind-n-Seq
Molecule type: RNA
Medium: in vitro
Concentration: 365 nM
Setting: natural RNA segment, single round, ends assumed
Reference: no-protein control
Direction: higher = stronger binding
Construct (chain): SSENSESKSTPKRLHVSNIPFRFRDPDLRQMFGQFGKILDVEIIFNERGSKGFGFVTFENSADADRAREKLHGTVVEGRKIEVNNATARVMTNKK
Sequence	RBNS enrichment (R)
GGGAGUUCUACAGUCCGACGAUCUAGUUGAAUGUUGAGGCUUUAACUUUUUCGGUGUCUUUCUACAGCUGUGUUCUGUGACUCAAUUGUAUCGUGUUACUCUCAGUACAGACCGUCUCCUCUACGUGACCGUAUGGAAUUCUCGGGUGCCAA	0.357
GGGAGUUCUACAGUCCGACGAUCCCCUGAAAUCUGAAGGGCUUAGUUAGUACCUUGCCACUCUACCCCCAACACGUCACCCGAGUAGAAGCUGGGCAAGGCCCUACCAUCCUGGCCGUCUGUUCACAAGCCCAUGGAAUUCUCGGGUGCCAA	0.791
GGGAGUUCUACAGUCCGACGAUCCAGAUUACAAGCCUCCAGCAACACGUUGAGCGAUAAAGUAAUGAUCCCCCAAGACGAAUAUCCAGAAAUCAAUUUUGUGGGGCUCCUAAUUGGACCCAGGGGGAACACCCUGGAAUUCUCGGGUGCCAA	0.343
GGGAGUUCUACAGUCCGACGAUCGAUGGACUUGAAUGCAUUUUUGUCUCUUCUUGAUGAAGCGGCUUUGCCGCAGCAAAUGAGGCUUCUCUCUGAGGAGCUGAGAGGUCUUGCAGCCUCUCCUUGUCAUUCUCUGGAAUUCUCGGGUGCCAA	0.283
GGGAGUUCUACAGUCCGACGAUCUACCGAGCUACUGGUCCUAAGAUGUUUCAGACUUAAAGCAAAUGCAUGUGUUACACCCAUCCCGUUUACCAUAUUACCAAAUCCUCACAAGAGGUUUCAAGGAACUGUUUUGGAAUUCUCGGGUGCCAA	7.59
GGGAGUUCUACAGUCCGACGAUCAGUUGGCUUGGACAAGUUUAACUUUAUUUUUAAUGUGUUAAUUACUUGGAAUAAAUGCAUUAAUCUCUGUUUCCUUCUGGAUUUUUGUUUUGAAAUCACACACAUUUGAAUGGAAUUCUCGGGUGCCAA	0.751
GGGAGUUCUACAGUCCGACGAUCCGCCCACCACAGGCUCUUAAUGGGGCCGGGUCAGUCCUACAUGUGAGAUGGGUUAGGGCAAGUCUUUGCCAUCCCCCAGAUGGCUCUGUCUUCUUGUGUAUGGCAGGGCUUGGAAUUCUCGGGUGCCAA	0.252
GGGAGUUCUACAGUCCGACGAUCCAUUUCAGCAUUUGGCAAGUUCUCUCUUGCUGGCGUCAGAGUAGCUGGCCCAGCUCUUAGCUUGUUCUGAGGGUUCUGCUGUGAGGUGAGGGCCCCAUCUCAGCAUCGUAUGGAAUUCUCGGGUGCCAA	1.61
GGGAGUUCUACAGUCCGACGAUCCUAAUAGUAAGUGUGAUUUGAUUCUAAAUAAUAGGGUAGGUUUGGCUAUAACAGAUGCUUUUAAAGCAAAUGAUACCAUUUAAGAAAUUCAGAGAGGCAUUACUUAGAAUUGGAAUUCUCGGGUGCCAA	0.67
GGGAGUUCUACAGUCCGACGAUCGGAGUAGGGCCUGUGGCUCAGCGCUAGGCCACGCACGCAGCAUCCCAGGCAUGUGGUGAGAAACUGCCUUAAUGUGUCUCCUCUGUUCUUGUCAACAGGAGGCUCAAGAUUGGAAUUCUCGGGUGCCAA	14.5
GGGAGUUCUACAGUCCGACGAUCCUGAGACCUGCAAUGAGACCACCAAGCUUGGGGACUUUGUUCGAUACCAUUACAACUGUUCUUUGCUGGACGGCACCCAGCUGUUCACCUCGCAUGACUACGGGGCCCCCUGGAAUUCUCGGGUGCCAA	2.39
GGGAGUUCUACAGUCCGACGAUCGGGAACAGGAGGACUGGGCUUAGCACAGAGCCAUCAUCAUGUUCCCAAUUUGUGAAGAGACUCCUAACACUGCACUAACCCAUUUGUGUACAUACAUGGGCUCAGCCCUGUGGAAUUCUCGGGUGCCAA	1.29

Block 2
Target: MAFK, bZIP domain (human)
Method: DHFR protein complementation
Medium: yeast
Setting: single substitutions, most at no-binding floor
Reference: wild-type JUN-FOS pair
Direction: higher = stronger binding
Parent: JUN, bZIP domain (human); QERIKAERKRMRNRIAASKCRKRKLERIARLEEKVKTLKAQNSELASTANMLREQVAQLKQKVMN; partner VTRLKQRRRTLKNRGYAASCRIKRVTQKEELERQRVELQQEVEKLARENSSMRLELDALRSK
Substitution	binding fitness [natural log]
R53Q	-1.46
T48E	-1.48
A49V	-1.43
V56T	-1.5
S47G	-1.44
L52R	-1.46
A46T	-1.45
K39T	-1.41
R30K	-1.5
R53S	-1.48
L38N	-1.47
V35Y	-1.49
A40D	-1.48
N42G	-1.49
E32S	-1.48
K39F	-1.54
V35W	-1.4
R30P	-1.46
K39A	-1.53
V56L	-1.43
L31C	-1.52
L52T	-1.48
L45G	-1.45
L31A	-1.35
M51P	-1.46

Block 3
Target: Hepatocyte nuclear factor 3-alpha (Foxa1, Mus musculus, UniProt P35582, residues 1-468, full length assumed)
Method: EMSA with sequencing
Molecule type: double-stranded DNA, one strand shown
Medium: in vitro
Concentration: 10 and 20 nM
Setting: whole designed probe, mean of two concentrations, ends assumed
Reference: negative control set to 0
Direction: higher = stronger binding
Construct (chain): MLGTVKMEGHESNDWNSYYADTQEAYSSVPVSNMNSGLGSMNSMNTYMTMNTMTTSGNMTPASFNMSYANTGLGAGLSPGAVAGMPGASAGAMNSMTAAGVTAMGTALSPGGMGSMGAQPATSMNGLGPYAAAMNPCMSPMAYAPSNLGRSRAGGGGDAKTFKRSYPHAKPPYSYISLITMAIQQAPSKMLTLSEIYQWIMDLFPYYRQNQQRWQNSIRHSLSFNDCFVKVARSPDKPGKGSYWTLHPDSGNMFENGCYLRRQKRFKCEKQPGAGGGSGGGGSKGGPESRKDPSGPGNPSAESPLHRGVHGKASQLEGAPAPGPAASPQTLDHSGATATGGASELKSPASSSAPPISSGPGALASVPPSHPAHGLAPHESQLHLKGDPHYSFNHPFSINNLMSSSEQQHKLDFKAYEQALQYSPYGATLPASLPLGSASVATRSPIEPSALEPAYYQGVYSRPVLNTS
Sequence	normalised bound fraction
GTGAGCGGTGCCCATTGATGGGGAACCAAGTTTGTGGTCCAGGAGCAACAGGTTATGCCATACAGCCTAGGTGTGTAGTAGGCTACACACCGTCTATGTTTGTGTTGTACACTCTACAATGTTTGCACAATGATGAAATCCCATGTCACATTTCTCAGAACATACCCCTGTTGTTAAGCGATACATGACTGTACTTTTTTTAAAAAGTCCAAGGATATATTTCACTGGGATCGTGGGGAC	0.477 ratio
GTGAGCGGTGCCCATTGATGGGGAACCTGACAGCATGATTTAATGGCCTGGTTGCTCCATGAGTTGACATGGCAACCACAGAAAATGCCATAAATATCTGAGTGTGGACGTGAATGCTAAGATTACATTGTGTGTGGTGCATTGTGTGACATGTGGTGGCTGTTGTCTCTTCCAGTTGGAAACGTCTGGAATTGACAGCCATGTTTTAGAGCCATTTGGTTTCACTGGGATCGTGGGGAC	-0.0305 ratio
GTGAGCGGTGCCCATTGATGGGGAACGACTTTTACACAGGCATCATGGGAGTAAGCCCAAGATATTTTCTCACACTTGATTCCAGGCATGTGGGGTTTGGTTTCTTGATCAAATATCTGAGATTGCTCTGTTTACAAGTATCTGATGAGCAAAACCAACAGAGGTGCTCCAGACAGGCTGGCTGTGCTGATCCCTTGGAAAAGAATTAAACAAAACCCATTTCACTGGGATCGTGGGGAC	0.17 ratio
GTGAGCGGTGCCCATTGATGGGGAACTGAGGACTGGAACATTATAGTTTTATATCTCACACTAACAGAAAACTCTTTGATATATTGCAATTATTCAATGCATGTTTAATAAATAATAAGTAAACATGGCATAAAAATAATTTTAATTGTGGACTTTTATTATTAAAACACTTTTAATTATTATTTAATTAACAATTTTAATTATGAAATCTGCATTCAATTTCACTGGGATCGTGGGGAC	0.363 ratio
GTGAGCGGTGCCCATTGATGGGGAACATCTTCCCCCTCTTCCTTGCCCCACCAGCTCACCTACGGGGGTTATTTGCACAAAGGAAAATAAATAAAGCCGGCATTCGTTAACGCAGTTCTGGCGCAAACTGCTGTTTGCTCTGGATGAATCATGGTCCTTTGGCGACGCCAGGCTCCGGGAGAGCAAAGCACCGTGTCAGGGCCATGATCCGGGCTCGCCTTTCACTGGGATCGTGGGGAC	0.385 ratio
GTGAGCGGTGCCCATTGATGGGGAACTTGGTACAGAAAGCATACACCAGATGGTTAACAAAAACTAATTATTGATCAGCTTATGTTAGCTATGTAAGGACTATTCTTTCATAGTTATTTGTTTACTTTGGAATATTCAAATATACTCAAATATACACACAGTACTTTGAATATATACAGAGTACACAATTTCCATACATTAAAGCAGGGGTGTCCAACCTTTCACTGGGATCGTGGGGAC	0.522 ratio
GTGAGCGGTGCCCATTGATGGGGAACTTAACATATCCTTACAATCAGTTTTACTTATAGAGATTTTTAGGATGACAGGGTGACCGAATTGTTGTGTTAGGTAAAATAAAGTCCATCTTGATGTTTACTCTGAATTTTAAAAAATATATTGAAACTTCACTCATGAAATAGTTGTTAATGATTTCCTATTCACTCTGAGAGATGTATCTATGTCAGTCATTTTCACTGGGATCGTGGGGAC	0.156 ratio
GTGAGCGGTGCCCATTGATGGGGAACGGGGATTCTTTCATTATACAAATACATGTTATTTTTGAATTTCAGAAGAAATCATGATATGTCAATCTATTGAGTGCTAACTAAAAGTTCTCTTTGTTTACTTAGCTTTCTCTTAGTTGTAAGAAAGAAAAAGACGTCTTGCATGAAAATAGTACGTTGCGGGAAGAAATTGCCATGCTAAGACTGGAGCTAGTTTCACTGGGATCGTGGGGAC	0.503 ratio

Block 4
Target: Histone acetyltransferase KAT6A, winged helix 2, GST fusion (KAT6A, Homo sapiens, UniProt Q92794, residues 85-181)
Method: protein binding microarray
Molecule type: double-stranded DNA, one strand shown
Medium: in vitro
Concentration: not given
Setting: 8-mer, flanks averaged, mean of 2 arrays, mostly near background
Reference: not given
Direction: higher = stronger binding
Residues (chain): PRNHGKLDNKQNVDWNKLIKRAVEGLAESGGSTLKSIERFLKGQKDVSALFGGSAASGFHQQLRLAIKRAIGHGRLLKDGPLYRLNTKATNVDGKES
Sequence	E-score
ATCCTTAC	-0.201
GGAAAGTA	-0.137
CAGCGCAC	0.158
TCTGTGCA	0.0899
GTGCGCAC	0.136
GTGCGGAA	0.086
ACAAGCTC	0.151
ACTTTGCG	0.0668
TCGGCCGA	0.12
CTTGCCCA	0.0378
CCTTCTAG	-0.0918
ACCAGTCT	-0.0561
AGACAAGG	0.0631
AGTCCGAA	-0.0498
CTTCATCC	-0.0109
CAGTAATA	0.0291
ACTTCAGG	-0.101
CCTGTGTC	-0.0588

Block 5
Target: CCNA2, cyclin fold, Cln2 fusion (human)
Method: yeast growth competition, sequencing
Medium: yeast
Setting: strong parent motif
Reference: not given
Direction: higher = stronger binding
Parent: ORC1 docking peptide (human); PRARKRLELGNLG
Substitution	normalised enrichment score
PRARKRLELGNAG [L12A]	5.5
PRAEKRLELGNLG [R4E]	0.95
PRARKRLELGNLM [G13M]	6.2
PRARKRLEVGNLG [L9V]	2.4
PRARKRLEPGNLG [L9P]	0.625
PRARKRLELGNIG [L12I]	5.12
PRARKRLELDNLG [G10D]	6.67
PRARKLLELGNLG [R6L]	1.92
PRARKRLPLGNLG [E8P]	2.7
PRARKRLCLGNLG [E8C]	3.72
PSARKRLELGNLG [R2S]	4.7
PRARKRLELGNLT [G13T]	4.72
PRARKRLELGNGG [L12G]	4.52
PRARIRLELGNLG [K5I]	2.15
PRARKRQELGNLG [L7Q]	1.04
PRARKRLELGNCG [L12C]	5.51
WRARKRLELGNLG [P1W]	3.21
PRARKRLELGNLC [G13C]	5.11
PRARKILELGNLG [R6I]	2.03
PRARKRLWLGNLG [E8W]	3.23
PRARKRLELGPLG [N11P]	5.27
PRARKRLELGNDG [L12D]	4.9
DRARKRLELGNLG [P1D]	3.74
PRARKRLILGNLG [E8I]	3.97

For quick reference, copied from above (block 2):
Substitution	binding fitness [natural log]
R53Q	-1.46
V35W	-1.4
K39A	-1.53
R30P	-1.46
V56T	-1.5
A46T	-1.45
L38N	-1.47
A49V	-1.43
T48E	-1.48
K39F	-1.54
R53S	-1.48
L45G	-1.45
V56L	-1.43
